{"data": "Measured values collected from several papers", "note": "Each line is one published result; not all experiments were run side by side. ± gives the spread as reported."}
{"SMILES": "N=C(N)NCCC[C@@H]1NC(=O)[C@H](CCCCNC(=O)CON=C[C@H](F)[C@@H](O)[C@H](O)[C@H](O)CO)NC(=O)[C@@H](Cc2ccc(O)cc2)NC(=O)[C@H](CC(=O)O)NC(=O)CNC1=O [fluorine-18 labelled]", "test system": "nude mice U-87 MG tumour, intestine", "conditions": "intravenous, 2 h", "tissue uptake": "0.28 ± 0.19 %ID/g"}
{"SMILES": "CC(F)C(=O)NC[C@@H]1O[C@H](C(=O)NCCCC[C@@H]2NC(=O)[C@@H](Cc3ccccc3)NC(=O)[C@H](CC(=O)O)NC(=O)CNC(=O)[C@H](CCCNC(=N)N)NC2=O)[C@H](O)[C@H](O)[C@H]1O (stereo partly drawn) [fluorine-18 labelled]", "assay": "small-animal PET", "test system": "female athymic nude mice, U-87 MG xenograft, kidney", "conditions": "intravenous, 3.7 MBq, 60 min", "tissue uptake": "0.91 ± 0.08 %ID/g"}
{"SMILES": "CCCC[C@H](NC(=O)CN1CCC(NC(=O)CN2CCN(CC(=O)O)CCN(CC(=O)O)CCN(CC(=O)O)CC2)CC1)C(=O)N[C@H]1CC(=O)NCCCC[C@@H](C(N)=O)NC(=O)[C@H](Cc2c[nH]c3ccccc23)NC(=O)[C@H](CCCNC(=N)N)NC(=O)[C@@H](Cc2ccccc2)NC(=O)[C@H](Cc2c[nH]cn2)NC1=O [gallium-68 labelled]", "test system": "male C57BL/6J mice, B16-F10 tumours, testes", "conditions": "intravenous, 1 h, blocking study, together with: 100 µg non-radioactive Ga-peptide", "tissue uptake": "0.6 ± 0.3 %ID/g"}
{"SMILES": "O=C([O-])c1cccc(CN(CCN(Cc2cn(Cc3ccccc3)nn2)Cc2cccc(C(=O)[O-])n2)Cc2cn(Cc3ccccc3)nn2)n1.[64Cu+2]", "test system": "healthy athymic nude mice, skin", "conditions": "intravenous, 4 h", "tissue uptake": "2.38 %ID/g"}
{"SMILES": "CCCC[C@@H]1NC(=O)[C@@H](NC(=O)[C@H](CCC(=O)O)NC(=O)CNC(=O)CN2CCN(CC(=O)O)CCN(CC(=O)O)CCN(CC(=O)O)CC2)CCCCNC(=O)C[C@@H](C(N)=O)NC(=O)[C@H](C(C)C)NC(=O)[C@@H]2CCCN2C(=O)[C@H](CCCNC(=N)N)NC(=O)CNC(=O)[C@H](Cc2c[nH]c3ccccc23)NC(=O)[C@H](CCCNC(=N)N)NC(=O)[C@@H](Cc2ccccc2)NC(=O)[C@H](Cc2c[nH]cn2)NC(=O)[C@H](CCC(=O)O)NC1=O [gallium-67 labelled]", "test system": "C57 mice, B16/F1 flank melanoma, spleen", "conditions": "intravenous, 2 h, together with: blocking peptide 10 µg", "tissue uptake": "0.07 ± 0.03 %ID/g"}
{"SMILES": "CCCC[C@H](NC(=O)CNC(=O)CNC(=O)CN1CCN(CC(=O)O)CCN(CC(=O)O)CC1)C(=O)N[C@H]1CC(=O)NCCCC[C@@H](C(N)=O)NC(=O)[C@H](Cc2c[nH]c3ccccc23)NC(=O)[C@H](CCCNC(=N)N)NC(=O)[C@@H](Cc2ccccc2)NC(=O)[C@H](Cc2c[nH]cn2)NC1=O [gallium-67 labelled]", "test system": "C57 mice, female, B16/F1 melanoma, intestines", "conditions": "intravenous, 0.037 MBq, 4 h", "tissue uptake": "0.91 ± 0.05 %ID"}
{"SMILES": "N=C(N)NCCC[C@@H]1NC(=O)[C@H](CCCCNC(=O)CC[C@H](NC(=O)[C@H]2O[C@@H](CNC(=O)c3ccc(F)cc3)[C@H](O)[C@@H](O)[C@H]2O)C(=O)NCCCC[C@@H]2NC(=O)[C@@H](Cc3ccc(O)cc3)NC(=O)[C@H](CC(=O)O)NC(=O)CNC(=O)[C@H](CCCNC(=N)N)NC2=O)NC(=O)[C@@H](Cc2ccc(O)cc2)NC(=O)[C@H](CC(=O)O)NC(=O)CNC1=O [fluorine-18 labelled]", "assay": "small-animal PET", "test system": "female athymic nude mice, U-87 MG xenograft, kidney", "conditions": "intravenous, 3.7 MBq, 60 min", "tissue uptake": "3.4 ± 0.58 %ID/g"}
{"SMILES": "N=C(N)NCCC[C@H](NC(=O)[C@@H]1CSSC[C@H](NC(=O)[C@H](Cc2ccc3ccccc3c2)NC(=O)[C@H](CCCNC(=N)N)NC(=O)[C@H](CCCNC(=N)N)NC(=O)CN2CCN(CC(=O)O)CCN(CC(=O)O)CCN(CC(=O)O)CC2)C(=O)N[C@@H](Cc2ccc(O)cc2)C(=O)N[C@@H](CCCNC(N)=O)C(=O)N[C@@H](CCCCN)C(=O)N[C@H](CCCCN)C(=O)N2CCC[C@H]2C(=O)N[C@@H](Cc2ccc(O)cc2)C(=O)N[C@@H](CCCNC(=N)N)C(=O)N[C@@H](CCCNC(N)=O)C(=O)N1)C(N)=O [copper-64 labelled]", "test system": "female athymic nude mice, spleen", "conditions": "intravenous, 50 µCi, 4 h", "tissue uptake": "6.7 ± 0.86 %ID/g"}
{"SMILES": "NC12CNCCNCC(NCc3ccc(CNC(=O)CCCC(=O)NCc4ccc(-c5nncnn5)cc4)cc3)(CNCCNC1)CNCCNC2.[64Cu+2]", "test system": "athymic nude mice SW1222 xenograft, lung", "conditions": "1 h post injection, 24 h accumulation interval, together with: huA33-TCO pretargeting", "tissue uptake": "1.65 ± 0.51 %ID/g"}
{"SMILES": "CCCC[C@H](NC(=O)CNC(=O)CNC(=O)CN1CCN(CC(=O)O)CCN(CC(=O)O)CCN(CC(=O)O)CC1)C(=O)N[C@H]1CC(=O)NCCCC[C@@H](C(N)=O)NC(=O)[C@H](Cc2c[nH]c3ccccc23)NC(=O)[C@H](CCCNC(=N)N)NC(=O)[C@@H](Cc2ccccc2)NC(=O)[C@H](Cc2c[nH]cn2)NC1=O [gallium-67 labelled]", "test system": "female C57 mice, B16/F1 melanoma, skin", "conditions": "intravenous, 0.037 MBq, 4 h", "tissue uptake": "0.81 ± 0.22 %ID/g"}
{"SMILES": "CC(C)[C@H](NC(=O)[C@@H]1CCCN1C(=O)[C@H](CCCNC(=N)N)NC(=O)[C@H](CS)NC(=O)[C@H](Cc1c[nH]c2ccccc12)NC(=O)[C@H](CCCNC(=N)N)NC(=O)[C@@H](Cc1ccccc1)NC(=O)[C@H](Cc1c[nH]cn1)NC(=O)[C@H](CCC(=O)O)NC(=O)[C@H](CS)NC(=O)[C@H](CS)NC(=O)COCCOCCNC(=O)[C@@H]1CC(=O)N[C@@H](CCCNC(=N)N)C(=O)NCC(=O)N[C@@H](CC(=O)O)C(=O)N[C@H](Cc2ccc(O)cc2)C(=O)N1)C(N)=O [technetium-99m labelled]", "test system": "nude mice M21 xenograft, bladder", "conditions": "intravenous, 0.037 MBq, 2 h", "tissue uptake": "81.4 ± 1.72 %ID"}
{"SMILES": "O=C([O-])CN1CCN(CC(=O)[O-])CCN(CC(=O)[O-])CCN(CC(=O)[O-])CC1.[64Cu+2]", "test system": "healthy athymic nude mice, lung", "conditions": "intravenous, 1 h", "tissue uptake": "0.89 %ID/g"}
{"SMILES": "CCCC[C@H](NC(=O)CNC(=O)CNC(=O)CN1CCN(CC(=O)O)CCN(CC(=O)O)CC1)C(=O)N[C@H]1CC(=O)NCCCC[C@@H](C(N)=O)NC(=O)[C@H](Cc2c[nH]c3ccccc23)NC(=O)[C@H](CCCNC(=N)N)NC(=O)[C@@H](Cc2ccccc2)NC(=O)[C@H](Cc2c[nH]cn2)NC1=O [copper-64 labelled]", "test system": "female C57 mice, B16/F1 melanoma, liver", "conditions": "intravenous, 0.037 MBq, 2 h", "tissue uptake": "< 0.8 %ID/g"}
{"SMILES": "CC(F)C(=O)NC[C@@H]1O[C@H](C(=O)NCCCC[C@@H]2NC(=O)[C@@H](Cc3ccc(O)cc3)NC(=O)[C@H](CC(=O)O)NC(=O)CNC(=O)[C@H](CCCNC(=N)N)NC2=O)[C@H](O)[C@H](O)[C@H]1O (stereo partly drawn) [fluorine-18 labelled]", "assay": "small-animal PET", "test system": "female athymic nude mice, U-87 MG xenograft, liver", "conditions": "intravenous, 3.7 MBq, 120 min", "tissue uptake": "0.12 ± 0.01 %ID/g"}
{"SMILES": "CN1C(=O)[C@@H](Cc2ccc(O)c(I)c2)NC(=O)CNC(=O)[C@H](Cc2ccc3ccccc3c2)NC(=O)[C@H](CCCNC(=N)N)NC(=O)[C@H]1CCCNC(=O)c1ccc(CNC(=O)CN2CCN(CC(=O)O)CCN(CC(=O)O)CCN(CC(=O)O)CC2)cc1 [lutetium-177 labelled]", "assay": "item: 177Lu radioactivity", "test system": "female CB-17 SCID mice, Daudi xenograft, uterus", "conditions": "intravenous, 0.16 nmol per mouse, 1 h", "tissue uptake": "1.1 ± 0.2 %ID/g"}
{"SMILES": "CCCC[C@H](NC(=O)CNC(=O)CNC(=O)CN1CCN(CC(=O)O)CCN(CC(=O)O)CCN(CC(=O)O)CC1)C(=O)N[C@H]1CC(=O)NCCCC[C@@H](C(N)=O)NC(=O)[C@H](Cc2c[nH]c3ccccc23)NC(=O)[C@H](CCCNC(=N)N)NC(=O)[C@@H](Cc2ccccc2)NC(=O)[C@H](Cc2c[nH]cn2)NC1=O [lead-203 labelled]", "test system": "C57 mice with metastatic melanoma, lung", "conditions": "intravenous, 0.056 MBq, 4 h", "tissue uptake": "9.27 ± 1.13 %ID/g"}
{"SMILES": "O=C(NCC1OC2CCC=CCCC2O1)c1ccc([18F])nc1 (stereo not drawn)", "test system": "female BALB/c nude mice, brain", "conditions": "intravenous, 10 min", "tissue uptake": "3.8 ± 1.7 %ID/g"}
{"SMILES": "CC(F)C(=O)NC[C@@H]1O[C@H](C(=O)N[C@@H](CCC(=O)NCCCC[C@@H]2NC(=O)[C@@H](Cc3ccc(O)cc3)NC(=O)[C@H](CC(=O)O)NC(=O)CNC(=O)[C@H](CCCNC(=N)N)NC2=O)C(=O)NCCCC[C@@H]2NC(=O)[C@@H](Cc3ccc(O)cc3)NC(=O)[C@H](CC(=O)O)NC(=O)CNC(=O)[C@H](CCCNC(=N)N)NC2=O)[C@H](O)[C@H](O)[C@H]1O (stereo partly drawn) [fluorine-18 labelled]", "assay": "small-animal PET", "test system": "female athymic nude mice, U-87 MG xenograft, muscle", "conditions": "intravenous, 3.7 MBq, 120 min", "tissue uptake": "0.12 ± 0.02 %ID/g"}
{"SMILES": "N=C(N)NCCC[C@H](NC(=O)CON=C[C@H](F)[C@@H](O)[C@H](O)[C@H](O)CO)C(=O)NCC(=O)N[C@@H](CC(=O)O)C(=O)O [fluorine-18 labelled]", "test system": "nude mice U-87 MG tumour, blood", "conditions": "intravenous, 0.5 h", "tissue uptake": "0.43 ± 0.05 %ID/g"}
{"SMILES": "CC(F)C(=O)NCCOCCOCCOCC(=O)N[C@@H](CCC(=O)NCCCC[C@@H]1NC(=O)[C@@H](Cc2ccc(O)cc2)NC(=O)[C@H](CC(=O)O)NC(=O)CNC(=O)[C@H](CCCNC(=N)N)NC1=O)C(=O)NCCCC[C@@H]1NC(=O)[C@@H](Cc2ccc(O)cc2)NC(=O)[C@H](CC(=O)O)NC(=O)CNC(=O)[C@H](CCCNC(=N)N)NC1=O (stereo partly drawn) [fluorine-18 labelled]", "assay": "small-animal PET", "test system": "female athymic nude mice, U-87 MG xenograft, kidney", "conditions": "intravenous, 3.7 MBq, 120 min", "tissue uptake": "2.19 ± 0.57 %ID/g"}
{"SMILES": "O=C([O-])CN1CCN(CC(=O)[O-])CC(Cc2ccc(NC(=S)NCCOCCOCCOCCOCCOCCOCCOCCNC(=O)CCCC(=O)NCc3ccc(-c4nncnn4)cc3)cc2)N(CC(=O)[O-])CC1.[64Cu+2] (stereo not drawn)", "assay": "biodistribution", "test system": "healthy athymic nude mice, kidneys", "conditions": "1 h p.i.", "tissue uptake": "1.5 ± 0.2 %ID/g"}
